Published values of several laboratories.
Every numbered part comes from another study and shows a few of its results, in no order.

Set 1 — method: protein binding microarray; form: double-stranded DNA, one strand shown; sample: in vitro; concentration: not given; relative to: not given; reading: higher = stronger binding
Target: Histone acetyltransferase KAT6A, winged helix 2, GST fusion (KAT6A, Homo sapiens, UniProt Q92794, residues 85-181)
Setting: 8-mer, flanks averaged, mean of 2 arrays, mostly near background
Construct (chain): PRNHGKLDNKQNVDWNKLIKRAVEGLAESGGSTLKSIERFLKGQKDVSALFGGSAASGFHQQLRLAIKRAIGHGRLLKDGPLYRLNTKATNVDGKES
Sequence	E-score
ACGTACGA	-0.351
AGGGGGCA	0.136
AGAAAACG	0.0723
AATTGAGA	-0.0126

Set 2 — method: protein-binding microarray; form: double-stranded DNA, one strand shown; sample: in vitro; concentration: 250 nM; setting: 60-bp whole probe; with: salmon DNA 0.4 mg/ml; relative to: random background probes; reading: higher = stronger binding
Target: Interferon regulatory factor 7, full length, phosphomimetic (IRF7, Homo sapiens, UniProt Q92985, residues 1-503, S101K/S471D/S472D/S475D/S476D/S477D/S483D/S484D/S487D)
Sequence of UniProt Q92985 (whole entry, unmodified, looked up): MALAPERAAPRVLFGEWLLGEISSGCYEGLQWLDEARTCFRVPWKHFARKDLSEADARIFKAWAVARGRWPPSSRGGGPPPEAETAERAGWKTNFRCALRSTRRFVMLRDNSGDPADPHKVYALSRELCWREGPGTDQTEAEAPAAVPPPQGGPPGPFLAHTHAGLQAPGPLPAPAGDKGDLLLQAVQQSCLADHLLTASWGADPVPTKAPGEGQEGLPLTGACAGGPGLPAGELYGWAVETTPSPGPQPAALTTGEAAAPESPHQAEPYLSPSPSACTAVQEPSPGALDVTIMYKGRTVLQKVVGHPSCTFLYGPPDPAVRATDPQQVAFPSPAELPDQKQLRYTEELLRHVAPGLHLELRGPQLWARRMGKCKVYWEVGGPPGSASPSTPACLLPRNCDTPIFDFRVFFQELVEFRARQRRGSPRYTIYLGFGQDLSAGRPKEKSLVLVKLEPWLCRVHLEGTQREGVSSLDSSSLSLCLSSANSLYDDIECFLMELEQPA
Sequence	log fluorescence [z-score]
GCCTAGCACTTCGGTATCCTTATCCTTTAGTGCTAGGTCTTGATTCGCTTGACGCTGCTG	0.484
GCCTAGCACGACGATCTTAGTCTCGAGACGTGCTAGGTCTTGATTCGCTTGACGCTGCTG	0.595
GCCTAGCACATAGGACTGGGGACTGGGTTAGTGCTAGTCTTGATTCGCTTGACGCTGCTG	-0.301
GCCTAGCACTCACTTCTGCTTCCTCAGACTGTGCTAGTCTTGATTCGCTTGACGCTGCTG	0.729

Set 3 — method: universal PBM; form: double-stranded DNA, one strand shown; sample: in vitro; concentration: not given; reading: higher = stronger binding
Target: Sal-like protein 4, full length isoform B (SALL4, Homo sapiens, UniProt Q9UJQ4-2, residues 1-616)
Setting: 8-mer, flanks averaged, mean of replicates
Sequence	E-score
TAGATGGA	0.0554
AACTTATG	0.307
AACAAGAG	-0.0877
ACGGGCCT	-0.283

Other studies, line by line
Substance	target	assay	test system	setting	scale	measurement	result
PhoQ, residues 284 288 289 292 302 303 AAQSYM	PhoP, residues 12 14 15 18 19 NMSSL (Escherichia coli, UniProt P23836)	Sort-seq, measured: YFP reporter	E. coli	PhoQ-PhoP variant library, with: 10 µM Mg2+	relative to: high Mg2+ state, higher = stronger signaling	fold induction	9.52

Repeated from above (set 2):
Sequence	log fluorescence [z-score]
GCCTAGCACATAGGACTGGGGACTGGGTTAGTGCTAGTCTTGATTCGCTTGACGCTGCTG	-0.301
GCCTAGCACGACGATCTTAGTCTCGAGACGTGCTAGGTCTTGATTCGCTTGACGCTGCTG	0.595
